Measured values collected from several papers.
Lines come from different studies, so protocols differ.
B1: ATG11 322-576 (Saccharomyces cerevisiae, UniProt Q12527); sequence looked up; chain MFTPNESKFELEDQMAESFEVLVSEMRTRSRNVLDKEEEEFNSQEFLKSMNVMLEKDKKESVKTLFTISQALYSQIGELIDLKKSLQKHAVAILGNIAFTQMEILGIKRLLLNECNKDLELYKKYEVEFAQVEDLPLIYGLYLIEKYRRLSWFQQILSFISNFNQDLELFKQNELRTRNKWVKNFGSIATVFCEDLLSSSDFKRLNEYHSHTSPPNEDEEDENENSIANYRQDLVKVSQAIDNYMTQIKETDVSE
B2: EFR3B 716-787 (Homo sapiens, UniProt Q9Y2G0); chain VPAEEITYETLKKAIVDSVAVEEQERERRRQVVEKFQKAPFEEIAAHCGARASLLQSKLNQIFEITIRPPPS
B3: PUM1 701-1186 (Homo sapiens, UniProt Q14671); chain TGSGSRRDSLTGSSDLYKRTSSSLTPIGHSFYNGLSFSSSPGPVGMPLPSQGPGHSQTPPPSLSSHGSSSSLNLGGLTNGSGRYISAAPGAEAKYRSASSASSLFSPSSTLFSSSRLRYGMSDVMPSGRSRLLEDFRNNRYPNLQLREIAGHIMEFSQDQHGSRFIQLKLERATPAERQLVFNEILQAAYQLMVDVFGNYVIQKFFEFGSLEQKLALAERIRGHVLSLALQMYGCRVIQKALEFIPSDQQNEMVRELDGHVLKCVKDQNGNHVVQKCIECVQPQSLQFIIDAFKGQVFALSTHPYGCRVIQRILEHCLPDQTLPILEELHQHTEQLVQDQYGNYVIQHVLEHGRPEDKSKIVAEIRGNVLVLSQHKFASNVVEKCVTHASRTERAVLIDEVCTMNDGPHSALYTMMKDQYANYVVQKMIDVAEPGQRKIVMHKIRPHIATLRKYTYGKHILAKLEKYYMKNGVDLGPICGPPNGII
B4: iraM 1-78 (Escherichia coli, UniProt P75987); chain MKWIVIDTVIQPTCGISFSAIWGNMKMIIWYQSTIFLPPGSIFTPVKSGIILKDKEYPITIYHIAPFNKDLWSLLKSS
B5: PSMG4 1-123 (Homo sapiens, UniProt Q5JS54); chain MEGLVVAAGGDVSLHNFSARLWEQLVHFHVMRLTDSLFLWVGATPHLRNLAVAMCSRYDSIPVSTSLLGDTSDTTSTGLAQRLARKTNKQVFVSYNLQNTDSNFALLVENRIKEEMEAFPEKF
B6: TFB2M 60-396 (Homo sapiens, UniProt Q9H5Q4); sequence looked up; chain PPRKASKASLDFKRYVTDRRLAETLAQIYLGKPSRPPHLLLECNPGPGILTQALLEAGAKVVALESDKTFIPHLESLGKNLDGKLRVIHCDFFKLDPRSGGVIKPPAMSSRGLFKNLGIEAVPWTADIPLKVVGMFPSRGEKRALWKLAYDLYSCTSIYKFGRIEVNMFIGEKEFQKLMADPGNPDLYHVLSVIWQLACEIKVLHMEPWSSFDIYTRKGPLENPKRRELLDQLQQKLYLIQMIPRQNLFTKNLTPMNYNIFFHLLKHCFGRRSATVIDHLRSLTPLDARDILMQIGKQEDEKVVNMHPQDFKTLFETIERSKDCAYKWLYDETLEDR
B7: ranibizumab Fab; V domains shown; VH EVQLVESGGGLVQPGGSLRLSCAASGYDFTHYGMNWVRQAPGKGLEWVGWINTYTGEPTYAADFKRRFTFSLDTSKSTAYLQMNSLRAEDTAVYYCAKYPYYYGTSHWYFDVWGQGTLVTVSS; VL DIQLTQSPSSLSASVGDRVTITCSASQDISNYLNWYQQKPGKAPKVLIYFTSSLHSGVPSRFSGSGSGTDFTLTISSLQPEDFATYYCQQYSTVPWTFGQGTKVEIK
B8: ND2 1-469 (Yarrowia lipolytica, UniProt Q9B6C8); sequence looked up; chain MLILAIISLITFVSMSKLSDNRAIIRLINIYLILVLVLDSFLYLLFLNNQTYTVMGELLIFNSFTFYIDMLIYFIMIVISSLYGYNLYNNNLYKTLFEPKKELIILFLINILGALLIVHSNDFITLFVAIELQSYSIYLITAIYNSSYKASKASMLYFFMGGILSILIAYSINTYYSVLNSYTLHSLDSLIINTLDLNLILIALSLGLLFKIGIAPLHKWLISIYENTPILITIYISLIPKISILSYLVLSNISINSLVISILAILTLLVGSVGGLLQIKIKRLLAFSGLTNAGYMMLLLLLNNNEFSYLYYITQYSISHLAIFMIIIFSIYYINYINNQYNPIIYVNQLKGLIHDNAYLVLSMAIVVFSFIGIPPLLGFFGKLNILMSILNNGYYFISIVLIVASLISALYYLYLLNVSIQDKNNILINSNETVSSVLSYILSSLIILITFGFIYNSLIIDIFNVYFN
B9: ktrA (Bacillus subtilis, UniProt O32080); sequence looked up; chain MGRIKNKQFAVIGLGRFGGSICKELHRMGHEVLAVDINEEKVNAYASYATHAVIANATEENELLSLGIRNFEYVIVAIGANIQASTLTTLLLKELDIPNIWVKAQNYYHHKVLEKIGADRIIHPEKDMGVKIAQSLSDENVLNYIDLSDEYSIVELLATRKLDSKSIIDLNVRAKYGCTILAIKHHGDICLSPAPEDIIREQDCLVIMGHKKDIKRFENEGM
B10: NFE2L2 155-220 (Homo sapiens, UniProt Q16236); chain GVFIATNQAQSPETSVAQVAPVDLDGMQQDIEQVWEELLSIPELQCLNIENDKLVETTMVPSPEAKL
B11: VAMP8 (Homo sapiens, UniProt Q9BV40); chain MEEASEGGGNDRVRNLQSEVEGVKNIMTQNVERILARGENLEHLRNKTEDLEATSEHFKTTSQKVARKFWWKNVKMIVLICVIVFIIILFIVLFATGAFS
B12: dnaG P16 domain 453-597 (Geobacillus stearothermophilus, UniProt Q9X4D0); sequence looked up; chain AKKLLPAFQNAERLLLAHMMRSRDVALVVQERIGGRFNIEEHRALAAYIYAFYEEGHEADPGALISRIPGELQPLASDVSLLLIADDVSEQELEDYIRHVLNRPKWLMLKVKEQEKTEAERRKDFLTAARIAKEMIEMKKMLSSS
B13: PduA 2-94 (Salmonella enterica, UniProt P0A1C7); chain QQEALGMVETKGLTAAIEAADAMVKSANVMLVGYEKIGSGLVTVIVRGDVGAVKAATDAGAAAARNVGEVKAVHVIPRPHTDVEKILPKGISQ
B14: TNPO1; chain VWDRQTKMEYEWKPDEQGLQQILQLLKESQSPDTTIQRTVQQKLEQLNQYPDFNNYLIFVLTKLKSEDEPTRSLSGLILKNNVKAHFQNFPNGVTDFIKSECLNNIGDSSPLIRATVGILITTIASKGELQNWPDLLPKLCSLLDSEDYNTCEGAFGALQKICEDSAEILDSDVLDRPLNIMIPKFLQFFKHSSPKIRSHAVACVNQFIISRTQALMLHIDSFIENLFALAGDEEPEVRKNVCRALVMLLEVRMDRLLPHMHNIVEYMLQRTQDQDENVALEACEFWLTLAEQPICKDVLVRHLPKLIPVLVNGMKYSDIDIILLKGDVEEDETIPDSEQDIRPRFHRSRTVAQQHDEDGIEEEDDDDDEIDDDDTISDWNLRKCSAAALDVLANVYRDELLPHILPLLKELLFHHEWVVKESGILVLGAIAEGCMQGMIPYLPELIPHLIQCLSDKKALVRSITCWTLSRYAHWVVSQPPDTYLKPLMTELLKRILDSNKRVQEAACSAFATLEEEACTELVPYLAYILDTLVFAFSKYQHKNLLILYDAIGTLADSVGHHLNKPEYIQMLMPPLIQKWNMLKDEDKDLFPLLECLSSVATALQSGFLPYCEPVYQRCVNLVQKTLAQAMLNNAQPDQYEAPDKDFMIVALDLLSGLAEGLGGNIEQLVARSNILTLMYQCMQDKMPEVRQSSFALLGDLTKACFQHVKPCIADFMPILGTNLNPEFISVCNNATWAIGEISIQMGIEMQPYIPMVLHQLVEIINRPNTPKTLLENTAITIGRLGYVCPQEVAPMLQQFIRPWCTSLRNIRDNEEKDSAFRGICTMISVNPSGVIQDFIFFCDAVASWINPKDDLRDMFCKILHGFKNQVGDENWRRFSDQFPLPLKERLAAFYGV
B15: α-sarcoglycan mature (Oryctolagus cuniculus, UniProt Q28686); N-linked glycans; sequence looked up; chain QQTTLYPLVGRVFVHTLEPASFLHLPEHAAPATIPVTYHAHLQGHPDLPRWLRYTQRSPHHPGFLYGAATPEDRGRQVIEVTAYNRDSFDTAGQSLVLLIRDPEGSPLPYQTEFLVRSHDVEEVLPPTPASHFLTALAGLWEPGELKLLNITSALDRGGRVPLPIGGQKEGVYIKVGSASPFSTCLKMVASPDSHARCARGQPPLLSCYDTLAPHFRVDWCNVSLVDTSVPEPVDEVPTPGDGILEHDPFFCPPTEATARDFLADALVTLLVPLLVALLLALLLAYIMCCRREGRLKRDLATSDIQMVHHCTIHENTEELRQMAASREVPRPLFPLPMFNVRTGERMPPRVDSAQVPLILDQH
B16: scFv; chain EVQLVQSGAGVKKPGSSVKVSCKSSGGTSGSSAVSWIRQAPGQGVEWMGGITSIFGPANYAQKFQDRLKITADKATNTVYMELSGLTFEDTAVYYCARVGDYNFWNGHYRSGYYFDLWGRGTLVTVSSGGGGSGGGGSGGGGSAQSVLTQPPSASGTPGQRVTISCSGSSSNIGSNTVNWYQQLPGTAPKLLIYSNTQRPSGVPDRFSGSKSATSASLAISGLQSEDEADYYCAAWDDSLNGHVVFGGGTKVTVLGAAAENLYFQ
B17: SNAPC4 1-505 (Homo sapiens, UniProt Q5SXM2); chain MDVDAEREKITQEIKELERILDPGSSGSHVEISESSLESDSEADSLPSEDLDPADPPISEEERWGEASNDEDDPKDKTLPEDPETCLQLNMVYQEVIQEKLAEANLLLAQNREQQEELMRDLAGSKGTKVKDGKSLPPSTYMGHFMKPYFKDKVTGVGPPANEDTREKAAQGIKAFEELLVTKWKNWEKALLRKSVVSDRLQRLLQPKLLKLEYLHQKQSKVSSELERQALEKQGREAEKEIQDINQLPEEALLGNRLDSHDWEKISNINFEGSRSAEEIRKFWQNSEHPSINKQEWSREEEERLQAIAAAHGHLEWQKIAEELGTSRSAFQCLQKFQQHNKALKRKEWTEEEDRMLTQLVQEMRVGSHIPYRRIVYYMEGRDSMQLIYRWTKSLDPGLKKGYWAPEEDAKLLQAVAKYGEQDWFKIREEVPGRSDAQCRDRYLRRLHFSLKKGRWNLKEEEQLIELIEKYGVGHWAKIASELPHRSGSQCLSKWKIMMGKKQGL
Sequence of UniProt O32081 (whole entry, looked up): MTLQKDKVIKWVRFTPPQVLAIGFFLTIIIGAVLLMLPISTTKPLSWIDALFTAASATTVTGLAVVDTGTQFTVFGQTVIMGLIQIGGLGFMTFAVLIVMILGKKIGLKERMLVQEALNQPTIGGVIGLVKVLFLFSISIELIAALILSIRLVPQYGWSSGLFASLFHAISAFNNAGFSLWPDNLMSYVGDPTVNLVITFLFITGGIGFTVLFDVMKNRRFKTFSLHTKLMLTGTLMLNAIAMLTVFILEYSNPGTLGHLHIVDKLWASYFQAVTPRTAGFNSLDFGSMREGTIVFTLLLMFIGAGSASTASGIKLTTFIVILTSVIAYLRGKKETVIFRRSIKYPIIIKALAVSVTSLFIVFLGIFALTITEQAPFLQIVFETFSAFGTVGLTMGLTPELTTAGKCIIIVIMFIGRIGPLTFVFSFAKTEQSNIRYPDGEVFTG
Sequence of UniProt P49767 (whole entry, looked up): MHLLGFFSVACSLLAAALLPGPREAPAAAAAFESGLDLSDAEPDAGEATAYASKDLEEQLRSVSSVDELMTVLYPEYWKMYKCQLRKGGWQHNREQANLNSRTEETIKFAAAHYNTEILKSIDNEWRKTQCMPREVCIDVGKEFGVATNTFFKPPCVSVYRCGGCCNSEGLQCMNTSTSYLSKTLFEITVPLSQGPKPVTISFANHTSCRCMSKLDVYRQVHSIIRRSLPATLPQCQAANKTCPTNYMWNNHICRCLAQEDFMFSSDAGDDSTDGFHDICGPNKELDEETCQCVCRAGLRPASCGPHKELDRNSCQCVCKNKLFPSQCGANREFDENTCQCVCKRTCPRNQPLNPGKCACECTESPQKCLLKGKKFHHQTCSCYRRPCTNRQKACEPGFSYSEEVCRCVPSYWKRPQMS
Sequence of UniProt Q09472 (whole entry, looked up): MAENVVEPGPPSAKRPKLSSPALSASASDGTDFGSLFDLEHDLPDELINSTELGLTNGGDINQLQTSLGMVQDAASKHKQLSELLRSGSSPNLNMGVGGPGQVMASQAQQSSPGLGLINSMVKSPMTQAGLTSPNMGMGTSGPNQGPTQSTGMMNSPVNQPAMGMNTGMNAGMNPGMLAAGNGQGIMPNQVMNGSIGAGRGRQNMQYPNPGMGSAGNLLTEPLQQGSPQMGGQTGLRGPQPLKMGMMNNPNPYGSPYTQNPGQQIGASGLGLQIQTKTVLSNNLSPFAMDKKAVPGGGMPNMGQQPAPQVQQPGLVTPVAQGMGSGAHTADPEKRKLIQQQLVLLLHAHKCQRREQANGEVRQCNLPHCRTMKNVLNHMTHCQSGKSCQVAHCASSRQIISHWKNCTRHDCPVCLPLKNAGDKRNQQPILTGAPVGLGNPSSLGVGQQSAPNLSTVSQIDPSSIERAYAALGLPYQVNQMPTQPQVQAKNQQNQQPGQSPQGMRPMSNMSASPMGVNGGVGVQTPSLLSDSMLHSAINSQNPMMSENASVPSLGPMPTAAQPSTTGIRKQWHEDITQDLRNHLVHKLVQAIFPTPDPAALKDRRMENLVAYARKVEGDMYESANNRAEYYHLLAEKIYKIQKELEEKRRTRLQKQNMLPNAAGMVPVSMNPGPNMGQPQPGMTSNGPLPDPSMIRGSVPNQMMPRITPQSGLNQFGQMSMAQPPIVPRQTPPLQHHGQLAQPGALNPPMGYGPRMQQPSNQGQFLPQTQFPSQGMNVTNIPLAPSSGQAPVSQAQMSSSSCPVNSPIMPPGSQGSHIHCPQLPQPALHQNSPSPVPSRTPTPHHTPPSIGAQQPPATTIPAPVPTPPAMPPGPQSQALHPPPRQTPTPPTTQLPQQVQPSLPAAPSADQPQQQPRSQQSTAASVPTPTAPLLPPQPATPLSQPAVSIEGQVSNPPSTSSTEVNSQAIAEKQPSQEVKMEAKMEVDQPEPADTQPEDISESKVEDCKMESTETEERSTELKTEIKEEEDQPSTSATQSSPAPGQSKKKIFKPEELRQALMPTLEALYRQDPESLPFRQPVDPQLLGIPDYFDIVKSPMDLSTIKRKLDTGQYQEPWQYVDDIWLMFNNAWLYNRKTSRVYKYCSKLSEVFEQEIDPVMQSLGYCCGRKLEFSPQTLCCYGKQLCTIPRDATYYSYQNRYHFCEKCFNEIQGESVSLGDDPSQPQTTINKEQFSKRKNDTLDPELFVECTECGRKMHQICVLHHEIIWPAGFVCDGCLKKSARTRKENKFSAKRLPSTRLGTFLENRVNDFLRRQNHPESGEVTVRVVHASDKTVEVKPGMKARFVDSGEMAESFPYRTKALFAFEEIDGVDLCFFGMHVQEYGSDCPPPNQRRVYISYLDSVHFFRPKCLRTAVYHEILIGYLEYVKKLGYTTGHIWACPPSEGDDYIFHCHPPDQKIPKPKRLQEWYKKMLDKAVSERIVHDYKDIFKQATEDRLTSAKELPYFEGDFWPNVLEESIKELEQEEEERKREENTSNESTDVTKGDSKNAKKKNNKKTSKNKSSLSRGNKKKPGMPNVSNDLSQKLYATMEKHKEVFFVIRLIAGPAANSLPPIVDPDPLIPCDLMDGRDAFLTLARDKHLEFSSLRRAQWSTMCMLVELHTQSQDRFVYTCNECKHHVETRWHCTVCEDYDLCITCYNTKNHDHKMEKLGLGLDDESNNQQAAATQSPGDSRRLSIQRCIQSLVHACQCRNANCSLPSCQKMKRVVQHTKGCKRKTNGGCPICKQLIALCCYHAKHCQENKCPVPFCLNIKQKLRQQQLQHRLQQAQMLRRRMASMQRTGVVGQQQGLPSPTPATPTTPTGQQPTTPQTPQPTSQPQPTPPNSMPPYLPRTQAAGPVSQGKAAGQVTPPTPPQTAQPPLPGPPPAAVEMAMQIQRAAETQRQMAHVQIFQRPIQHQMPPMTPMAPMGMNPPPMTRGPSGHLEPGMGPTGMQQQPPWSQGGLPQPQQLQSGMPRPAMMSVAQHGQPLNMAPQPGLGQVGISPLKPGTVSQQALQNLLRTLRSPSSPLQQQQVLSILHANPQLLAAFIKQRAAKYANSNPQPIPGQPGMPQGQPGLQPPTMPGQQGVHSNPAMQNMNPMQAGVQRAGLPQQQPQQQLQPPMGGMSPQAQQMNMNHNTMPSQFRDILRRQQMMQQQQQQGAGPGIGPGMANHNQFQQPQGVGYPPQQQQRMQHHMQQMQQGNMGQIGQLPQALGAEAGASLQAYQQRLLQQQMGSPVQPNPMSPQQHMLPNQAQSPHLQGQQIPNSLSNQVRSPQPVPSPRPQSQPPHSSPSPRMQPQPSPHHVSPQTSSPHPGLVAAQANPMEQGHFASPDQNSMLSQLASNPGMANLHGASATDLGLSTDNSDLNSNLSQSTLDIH
Sequence of UniProt Q969S2 (whole entry, looked up): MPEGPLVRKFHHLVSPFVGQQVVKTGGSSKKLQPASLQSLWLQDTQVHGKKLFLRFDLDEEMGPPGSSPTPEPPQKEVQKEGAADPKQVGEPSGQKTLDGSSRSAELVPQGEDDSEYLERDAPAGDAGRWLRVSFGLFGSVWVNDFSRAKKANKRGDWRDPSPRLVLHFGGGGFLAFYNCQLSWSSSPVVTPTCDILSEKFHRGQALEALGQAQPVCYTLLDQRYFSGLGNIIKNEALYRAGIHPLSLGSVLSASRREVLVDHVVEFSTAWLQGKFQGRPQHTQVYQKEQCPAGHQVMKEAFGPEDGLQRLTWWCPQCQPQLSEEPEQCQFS
Sequence of UniProt Q9NVU0 (whole entry, looked up): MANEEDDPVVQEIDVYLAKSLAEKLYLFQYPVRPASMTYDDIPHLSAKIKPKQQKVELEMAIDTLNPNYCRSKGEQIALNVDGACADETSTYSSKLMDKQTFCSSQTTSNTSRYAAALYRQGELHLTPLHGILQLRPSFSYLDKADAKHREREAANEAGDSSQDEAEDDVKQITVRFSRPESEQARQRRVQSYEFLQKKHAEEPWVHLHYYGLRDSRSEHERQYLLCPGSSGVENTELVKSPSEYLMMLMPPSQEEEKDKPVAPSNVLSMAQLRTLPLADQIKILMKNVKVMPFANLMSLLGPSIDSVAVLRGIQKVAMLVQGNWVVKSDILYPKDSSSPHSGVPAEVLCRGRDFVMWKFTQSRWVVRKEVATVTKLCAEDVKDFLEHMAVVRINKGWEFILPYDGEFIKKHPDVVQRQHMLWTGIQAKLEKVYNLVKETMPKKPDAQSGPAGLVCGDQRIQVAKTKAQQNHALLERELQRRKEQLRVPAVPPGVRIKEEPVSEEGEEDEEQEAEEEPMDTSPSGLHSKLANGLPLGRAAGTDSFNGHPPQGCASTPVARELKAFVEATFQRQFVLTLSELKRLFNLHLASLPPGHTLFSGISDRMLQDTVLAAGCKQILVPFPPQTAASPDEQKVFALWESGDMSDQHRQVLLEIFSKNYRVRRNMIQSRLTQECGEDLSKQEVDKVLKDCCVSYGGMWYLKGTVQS
Sequence of UniProt Q9XDN6 (whole entry, looked up): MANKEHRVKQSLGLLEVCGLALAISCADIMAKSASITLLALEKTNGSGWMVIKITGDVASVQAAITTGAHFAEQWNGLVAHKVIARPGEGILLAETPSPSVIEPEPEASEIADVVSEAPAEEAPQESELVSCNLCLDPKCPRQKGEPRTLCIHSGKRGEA
Sequence of UniProt P0AEV1 (whole entry, looked up): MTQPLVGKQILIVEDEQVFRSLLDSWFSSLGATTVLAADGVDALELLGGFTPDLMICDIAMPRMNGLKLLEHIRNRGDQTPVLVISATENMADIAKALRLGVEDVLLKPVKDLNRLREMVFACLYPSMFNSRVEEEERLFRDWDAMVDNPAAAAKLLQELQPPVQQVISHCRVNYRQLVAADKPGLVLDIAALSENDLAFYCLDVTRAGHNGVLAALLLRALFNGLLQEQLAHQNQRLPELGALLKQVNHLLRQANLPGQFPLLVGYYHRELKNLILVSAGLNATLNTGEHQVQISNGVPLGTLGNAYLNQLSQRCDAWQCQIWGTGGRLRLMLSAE
Sequence of UniProt Q5SLP6 (whole entry, looked up): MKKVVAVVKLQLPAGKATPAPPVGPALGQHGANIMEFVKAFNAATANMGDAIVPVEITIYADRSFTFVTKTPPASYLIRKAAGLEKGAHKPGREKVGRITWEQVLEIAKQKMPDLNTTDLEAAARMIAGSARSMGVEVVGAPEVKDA

Molecule | partner | assay | system | setting | binding
B1 (ATG11 322-576) | ATG9 2-318 (Saccharomyces cerevisiae, UniProt Q12142) | pull-down |  |  | binds
B2 (EFR3B 716-787) | TTC7A/FAM126A FAM126A 1-308 | BLI |  |  | binds
B3 (PUM1 701-1186) | CNOT1/CNOT2/CNOT3 C-terminal NOT module 1833-2361 | pull-down |  |  | binds
NEIL2 (Homo sapiens, UniProt Q969S2) | ERCC6 (Homo sapiens, UniProt Q03468) | far-Western blot |  |  | binds
MWVYRLKGTLEALDPILPGLFDGGARGLWEREGEVWAFFPAPVDLPYEGVWEEVGDEDW (prmA 1-59 (Thermus thermophilus, UniProt Q84BQ9); sequence looked up) | rplK N-terminal domain 2-72 (Thermus thermophilus, UniProt Q5SLP6) | X-ray crystallography |  | complex, N-terminal domains | binds
B4 (iraM 1-78) | rssB (Escherichia coli, UniProt P0AEV1) | crystal structure |  |  | binds
TARBP2 (Homo sapiens, UniProt Q15633) | DICER1 (Homo sapiens, UniProt Q9UPY3) | SEC |  |  | binds
B5 (PSMG4 1-123) | PSMA7 (Homo sapiens, UniProt O14818) | cryo-EM |  |  | binds
SSHSSLTERHKILHRLLQEGSPSDITTLSVEPD (NCOA1 678-710 (Homo sapiens, UniProt Q15788); sequence looked up) | NR1I2 130-434 L411A (Homo sapiens, UniProt O75469) | crystal structure | peptide |  | binds
B6 (TFB2M 60-396) | POLRMT 43-1230 (Homo sapiens, UniProt O00411) | cryo-EM |  |  | binds
GEYSSDFLTPEFVKFSMDLTNTEI (NR4A2 28-51 (Homo sapiens, UniProt P43354); sequence looked up) | Ncoa1 260-385 (Mus musculus, UniProt P70365) | NMR |  | in cis | binds
B7 (ranibizumab Fab) | VEGFC (Homo sapiens, UniProt P49767) | SPR | Fab |  | no binding
B8 (ND2 1-469) | ND4 1-486 (Yarrowia lipolytica, UniProt Q9B6D6) | cryo-EM |  |  | binds
B9 (ktrA) | ktrB 1-445 (Bacillus subtilis, UniProt O32081) | SEC |  |  | binds
B10 (NFE2L2 155-220) | EP300 TAZ2 1723-1812 x (Homo sapiens, UniProt Q09472) | circular dichroism |  |  | binds
B11 (VAMP8) | FBLIM1 (Homo sapiens, UniProt Q8WUP2) | pull-down |  |  | binds
B12 (dnaG P16 domain 453-597) | dnaB I125A (Geobacillus stearothermophilus, UniProt Q9X4C9) | NMR titration |  |  | binds
B13 (PduA 2-94) | PduK (Salmonella enterica, UniProt Q9XDN6) | cross-linking |  |  | binds
B14 (TNPO1) | MIDN fragment L395D (Homo sapiens) | pull-down |  |  | binds
B15 (α-sarcoglycan mature) | DAG1 alpha-dystroglycan (Oryctolagus cuniculus, UniProt Q28685) | cryo-EM structure |  |  | binds
B16 (scFv) | SIK3 59-385 C121S/C181S/C333S, pT221 (Homo sapiens, UniProt Q9Y2K2) | crystal structure | scFv |  | binds
B17 (SNAPC4 1-505) | POLR3E (Homo sapiens, UniProt Q9NVU0) | cryo-EM |  |  | binds

For quick reference, copied from above:
Molecule | partner | assay | system | setting | binding
B12 (dnaG P16 domain 453-597) | dnaB I125A (Geobacillus stearothermophilus, UniProt Q9X4C9) | NMR titration |  |  | binds
B6 (TFB2M 60-396) | POLRMT 43-1230 (Homo sapiens, UniProt O00411) | cryo-EM |  |  | binds
B11 (VAMP8) | FBLIM1 (Homo sapiens, UniProt Q8WUP2) | pull-down |  |  | binds
